Measured values from different studies.
Compare with care: the assays were run in different laboratories.
Cell line: NCI-H226

CCCCCCCCCCCCCCCCCCOc1ccc(CC(=O)OCC[N+]2(C)CCCCC2)cc1
growth inhibition (SRB; 10 µM): < 0%

CCCCN1CCN(c2ccc3[nH]c(-c4ccc5[nH]c(-c6ccc(OCC)c(OCC)c6)nc5c4)nc3c2)CC1
growth percent (cell growth, NCI-60 SRB; 10 µM): 16.2%

Cc1n[nH]c2nc(-c3ccc(Cl)cc3)c3c(NC(=O)c4ccccc4)nnc-3n12
cell growth (SRB; 10 µM, NCI60 single-dose screen; reference: untreated): 107%

CCCN1CCN(c2ccc3[nH]c(-c4ccc5[nH]c(-c6cc(OC)c(OC)c(OC)c6)nc5c4)nc3c2)CC1
growth percent (cell growth, NCI-60 SRB; 10 µM): 81.7%

Cc1n(Cc2ccc3ccccc3c2)c2ccccc2[n+]1Cc1ccc2ccccc2c1.[Br-]
TGI (NCI60 five-dose screen): 3.2 µM

Cn1cncc1C1=CN(c2ncnc3[nH]cnc23)CCS1
TGI (lung cancer): 110 µM

Cc1cc(C)n(C(=S)[S][Au][PH](CCCCCC[PH]([Au][S]C(=S)n2nc(C)cc2C)(c2ccccc2)c2ccccc2)(c2ccccc2)c2ccccc2)n1
log10 TGI (cell growth, NCI-60 screen; non-small cell lung cancer): > -4

CCCCN1CCN(c2ccc3[nH]c(-c4ccc5[nH]c(-c6cc(OC)c(OC)c(OC)c6)nc5c4)nc3c2)CC1
growth percent (cell growth, NCI-60 SRB; 10 µM): 77.7%

Cc1cc(=O)[nH]n1-c1nc(-c2ccc(Cl)cc2)c2c(NC(=O)c3ccccc3)nnc-2[nH]1
cell growth (SRB; 10 µM, NCI60 single-dose screen; reference: untreated): 94.5%

C#C[C@@]1(O)[C@@H](CO)O[C@@H](n2cc(I)c3c(N)ncnc32)[C@@H]1O
TGI (SRB; NCI-60 screen): > 100 µM

O=C(Nc1nnc2n3c(Cc4ccccc4)n[nH]c3nc(-c3ccc(Cl)cc3)c1-2)c1ccccc1
cell growth (SRB; 10 µM, NCI60 single-dose screen; reference: untreated): 94%

C#C[C@@]1(O)[C@@H](CO)O[C@@H](n2ccc3c(N)ncnc32)[C@@H]1O
TGI (SRB; NCI-60 screen): 4.85 µM

O=C(Nc1nnc2n3c(=S)[nH][nH]c3nc(-c3ccc(Cl)cc3)c1-2)c1ccccc1
cell growth (SRB; 10 µM, NCI60 single-dose screen; reference: untreated): 106%

COCCOCCOCc1n(Cc2ccc3ccccc3n2)c2ccccc2[n+]1Cc1ccc2ccccc2c1.[Br-]
TGI (NCI60 five-dose screen): 4.83 µM

NNc1nc(-c2ccc(Cl)cc2)c2c(NC(=O)c3ccccc3)nnc-2[nH]1
cell growth (SRB; 10 µM, NCI60 single-dose screen; reference: untreated): 109%

Cc1cc2c(cc1C)[n+](Cc1ccc3ccccc3c1)cn2Cc1ccc2ccccc2c1.[Br-]
TGI (NCI60 five-dose screen): 3.42 µM

A few entries again:
NNc1nc(-c2ccc(Cl)cc2)c2c(NC(=O)c3ccccc3)nnc-2[nH]1
cell growth (SRB; 10 µM, NCI60 single-dose screen; reference: untreated): 109%

Cc1cc2c(cc1C)[n+](Cc1ccc3ccccc3c1)cn2Cc1ccc2ccccc2c1.[Br-]
TGI (NCI60 five-dose screen): 3.42 µM
